# Measurements gathered from unrelated publications.
# Each numbered part is a random draw from the data of one study; scales do not carry over between parts. Substitutions count along the parent as printed.
# UniProt P62253, sequence (whole entry, looked up): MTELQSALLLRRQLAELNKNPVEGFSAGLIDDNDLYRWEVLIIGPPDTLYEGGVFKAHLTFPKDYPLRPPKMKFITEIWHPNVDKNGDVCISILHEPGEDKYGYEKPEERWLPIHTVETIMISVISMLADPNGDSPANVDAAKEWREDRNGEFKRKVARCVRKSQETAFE
# UniProt Q9C0C9, sequence (whole entry, looked up): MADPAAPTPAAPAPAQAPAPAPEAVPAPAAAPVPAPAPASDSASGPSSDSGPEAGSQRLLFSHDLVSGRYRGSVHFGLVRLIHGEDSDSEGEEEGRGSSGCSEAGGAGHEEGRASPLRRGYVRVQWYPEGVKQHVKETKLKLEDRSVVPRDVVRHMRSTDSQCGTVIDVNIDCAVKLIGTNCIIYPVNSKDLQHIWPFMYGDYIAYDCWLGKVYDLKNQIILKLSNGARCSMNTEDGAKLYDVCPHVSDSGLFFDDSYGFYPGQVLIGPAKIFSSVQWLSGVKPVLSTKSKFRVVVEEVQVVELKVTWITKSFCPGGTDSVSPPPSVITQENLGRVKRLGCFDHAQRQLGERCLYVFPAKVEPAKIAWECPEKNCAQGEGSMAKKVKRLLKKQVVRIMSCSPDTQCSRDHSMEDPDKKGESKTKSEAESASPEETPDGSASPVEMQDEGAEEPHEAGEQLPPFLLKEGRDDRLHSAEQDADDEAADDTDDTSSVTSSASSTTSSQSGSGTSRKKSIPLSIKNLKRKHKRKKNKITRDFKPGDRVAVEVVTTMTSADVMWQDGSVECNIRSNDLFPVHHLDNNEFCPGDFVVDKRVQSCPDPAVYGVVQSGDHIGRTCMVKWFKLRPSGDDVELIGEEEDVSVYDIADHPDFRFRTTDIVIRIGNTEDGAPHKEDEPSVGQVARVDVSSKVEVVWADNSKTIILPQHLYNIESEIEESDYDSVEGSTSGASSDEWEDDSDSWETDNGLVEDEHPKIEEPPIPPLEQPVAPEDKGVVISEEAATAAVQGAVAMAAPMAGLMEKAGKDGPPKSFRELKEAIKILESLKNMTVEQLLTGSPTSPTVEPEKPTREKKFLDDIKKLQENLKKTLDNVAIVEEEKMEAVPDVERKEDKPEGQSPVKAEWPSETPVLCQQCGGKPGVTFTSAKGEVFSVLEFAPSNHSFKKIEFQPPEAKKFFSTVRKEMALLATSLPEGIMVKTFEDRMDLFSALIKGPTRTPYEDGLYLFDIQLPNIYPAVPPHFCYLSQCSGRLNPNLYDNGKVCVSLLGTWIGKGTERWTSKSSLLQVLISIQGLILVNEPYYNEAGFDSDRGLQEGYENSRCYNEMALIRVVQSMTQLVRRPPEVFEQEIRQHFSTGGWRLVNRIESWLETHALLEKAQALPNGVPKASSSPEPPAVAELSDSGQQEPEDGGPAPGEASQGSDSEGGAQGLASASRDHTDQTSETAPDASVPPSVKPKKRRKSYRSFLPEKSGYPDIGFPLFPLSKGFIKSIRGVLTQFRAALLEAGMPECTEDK
# UniProt Q9H832, sequence (whole entry, looked up): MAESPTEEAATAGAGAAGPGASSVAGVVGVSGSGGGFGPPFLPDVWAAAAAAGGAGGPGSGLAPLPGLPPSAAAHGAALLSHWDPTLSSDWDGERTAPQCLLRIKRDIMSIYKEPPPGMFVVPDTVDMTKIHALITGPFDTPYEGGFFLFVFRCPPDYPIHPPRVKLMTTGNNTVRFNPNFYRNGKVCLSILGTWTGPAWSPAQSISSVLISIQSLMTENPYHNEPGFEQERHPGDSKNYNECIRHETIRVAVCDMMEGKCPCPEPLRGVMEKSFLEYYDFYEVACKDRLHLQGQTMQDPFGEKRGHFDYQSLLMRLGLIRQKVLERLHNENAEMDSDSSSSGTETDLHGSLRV
# UniProt O00762, sequence (whole entry, looked up): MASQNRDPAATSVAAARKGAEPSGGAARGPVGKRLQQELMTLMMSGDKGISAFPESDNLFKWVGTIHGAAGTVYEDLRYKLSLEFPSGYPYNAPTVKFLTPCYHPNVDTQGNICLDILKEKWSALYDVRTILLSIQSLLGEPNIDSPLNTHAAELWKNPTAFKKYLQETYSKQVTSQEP
# UniProt Q712K3, sequence (whole entry, looked up): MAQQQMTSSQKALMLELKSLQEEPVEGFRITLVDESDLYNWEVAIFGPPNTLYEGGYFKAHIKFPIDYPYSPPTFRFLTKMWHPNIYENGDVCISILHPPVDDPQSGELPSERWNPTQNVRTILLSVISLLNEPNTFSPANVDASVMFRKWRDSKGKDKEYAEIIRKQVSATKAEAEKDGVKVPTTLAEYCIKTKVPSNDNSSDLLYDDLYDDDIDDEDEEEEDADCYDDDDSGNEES
# UniProt Q9Y385, sequence (whole entry, looked up): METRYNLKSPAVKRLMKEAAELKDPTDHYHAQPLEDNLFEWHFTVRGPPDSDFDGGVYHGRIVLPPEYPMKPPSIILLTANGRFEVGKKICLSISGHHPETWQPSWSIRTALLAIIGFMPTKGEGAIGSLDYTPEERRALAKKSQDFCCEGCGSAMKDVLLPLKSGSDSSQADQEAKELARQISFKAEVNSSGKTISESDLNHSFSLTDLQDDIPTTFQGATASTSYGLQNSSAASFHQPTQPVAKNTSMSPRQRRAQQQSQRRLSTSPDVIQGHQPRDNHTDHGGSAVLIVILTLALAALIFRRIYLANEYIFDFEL

# Study 1 — technique: RNA Bind-n-Seq; molecule type: RNA; sample: in vitro; concentration: 200 nM; notes: whole 134-nt RNA, ends assumed; together with: 150 mM LiCl; reference: input library; direction: higher = stronger binding; all molecules: 7-deaza-guanosine replaces G
# Target: Ras GTPase-activating protein-binding protein 1, full length (G3BP1, Homo sapiens, UniProt Q13283)
# UniProt Q13283, sequence (whole entry, looked up): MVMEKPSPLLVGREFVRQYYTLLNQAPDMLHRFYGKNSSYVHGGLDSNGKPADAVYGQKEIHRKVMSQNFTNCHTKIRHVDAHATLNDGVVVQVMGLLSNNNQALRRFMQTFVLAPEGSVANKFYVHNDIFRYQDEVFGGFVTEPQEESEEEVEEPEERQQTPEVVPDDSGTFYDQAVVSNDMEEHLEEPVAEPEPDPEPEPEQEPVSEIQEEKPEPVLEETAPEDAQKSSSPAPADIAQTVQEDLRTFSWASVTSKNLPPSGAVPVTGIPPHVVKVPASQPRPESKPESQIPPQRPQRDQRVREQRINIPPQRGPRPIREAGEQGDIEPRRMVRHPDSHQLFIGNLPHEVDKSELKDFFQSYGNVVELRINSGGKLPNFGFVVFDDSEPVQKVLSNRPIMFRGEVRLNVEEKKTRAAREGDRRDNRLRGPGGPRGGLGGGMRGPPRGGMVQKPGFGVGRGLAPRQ
# Constant ends, left off below: GGGAGUUCUACAGUCCGACGAUC … UGGAAUUCUCGGGUGUCAAGG
Oligonucleotide,log2 enrichment
UGGGAGGUGGAUUUUGUUUAUUUUUUUAGCUCAUUUCCAGGGGUGGGAAUUGUUUUUUAAUAUGUGUCAUGAAUAAAGUUGUUUUUGAAA,-0.369
UGGCCCUGGUGGCAUGCGGGGAGGAAGAGGUGGCCUUAUGGAUCGUGGUGGUCCCGGUGGAAUGUUCAGAGGUGGCCGUGGUGGAGACAG,0.45
AAGUCCUGUGCUACACAUCGUAUGUACCGAAUCGGGCCCGGGGCCCGGGGCCCGGGGAAAGUAUUAUGUUACGCCGUUCGGAUCUGCACU,-0.827
AGUCCUGUGCUACACAUCGUAUGUACCGAAUCGGGGUUUGGGGAGGGGUUUUUGGGGAAAGUAUUAUGUUACGCCGUUCGGAUCUGCACU,0.00764
GCAGGAAGUAAAAACAAAUGGAAAUGCUUCGGAUAGUCGCAGGGGUGGGGGUUGCUAAGGAAAGGGUGGGAUGGGAGUGGGUAAAGAGUU,0.829
UGUGCUACACAUCGUAUGUACCGAAUCGGGGAAAAAAAGGGGUUUUUUUGGGGAAAAAGGGGAAAGUAUUAUGUUACGCCGUUCGGAUCU,-1.13
AGUCCUGUGCUACACAUCGUAUGUACCGAAUCGGGUUUUGGGUUUUGGGGUUUUGGGGAAAGUAUUAUGUUACGCCGUUCGGAUCUGCAC,0.521
CUCAAGUCCUGUGCUACACAUCGUAUGUACCGAAUCGGGUGGGUGGGGUGGGGAAAGUAUUAUGUUACGCCGUUCGGAUCUGCACUUCCA,-1.02
UCAAGUCCUGUGCUACACAUCGUAUGUACCGAAUCGGCCGGGGCCGGGCCGGGGAAAGUAUUAUGUUACGCCGUUCGGAUCUGCACUUCC,0.133
CCUGUGCUACACAUCGUAUGUACCGAAUCGGGCCCCCCGGGCCCCCCGGGGCCCCCCGGGAAAGUAUUAUGUUACGCCGUUCGGAUCUGC,-1.45
CACAGACAACACGCACCCACACAGACACAGAGGGAAGGGGUUGGGAUGGGGACAGGGUGUACAGCAGGGCGGGGUAGGACCCCAGCCCCU,-0.158

# Study 2 — technique: RNA Bind-n-Seq; molecule type: RNA; sample: in vitro; concentration: 365 nM; reference: no-protein control; direction: higher = stronger binding
# Target: RNA binding protein fox-1 homolog 2, RRM domain, GST-SBP tag (RBFOX2, Homo sapiens, UniProt O43251-10, residues 100-194)
# Notes: natural RNA segment, single round, ends assumed
# Constant ends, left off below: GGGAGUUCUACAGUCCGACGAUC … UGGAAUUCUCGGGUGCCAA
# Residues (chain): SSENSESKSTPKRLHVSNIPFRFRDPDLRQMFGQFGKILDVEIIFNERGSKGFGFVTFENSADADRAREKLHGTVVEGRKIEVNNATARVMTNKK
Oligonucleotide,RBNS enrichment (R)
CAGUGGUGUGAGUAACUGAGUCAAAUUGUCAAGUACUUUGGAUAUACAUAGUGUCGAGCUUUAGAUUGGUAUGAAAUUAAACAGCAAUGCAAAUAGAUUUAAUUCCUAUU,1.42
GCAUUUUAUGUACAAAACAGAAGUCAAUGCAACAGUAUGUAUGUGUGCCUGUGUGUGUAUAAAAAUAACCAUUGAAGCUAACUUGCUAAUGUACUUAGGCAAGCCACUUC,1.22
UUGGGCACUUGCCUUGAUUCCUUUUAUUAUUGGAAGUCAGAUACCCCCUCUCCAAAGUGAGCAGGCAGGUUUUAAACAGCUUAACUACUGACCAGUUAUAAGACUCGCUU,0.707
GGUGGCUGUGUCUCUCCCCGGUAAUGUCACUGUUUUUAUUCCUUCCAUCUAGCAGCUGGCCUAAUCACUCUGAGUCACAGGUGUGGGAUGGAGAGUGGGGAGAGGCACUU,0.347
UGGCUCUAGAUCUACAUUCUUCAAAAAAAAAAAUUGGCUUAACUGUUUCAUCUUUAAGUAGCAUUUUGCUGCCAUUUGUAUUGGGCUGAAGAAAUCACUAUUGUGUAUAU,0.582
CCUGUGGCCAUGAAGUCGUCUCCUGCCUCGAUGUCAGUGAAUCCGGCACCUUCCUAGGCCUGGGCACAGUCACUGGCUCUGUUGCCAUCUACAUAGCUUUCUCUCUCCAG,0.299
ACCAUUGUCUCCCCGCUGAACUCGGCUGCCUUGCCACCGAGGUGCCAGCCAGGCUAGAGGAGUGCCAGCAGGUCCCAGUAGGUCCUUAGGAAGGCUGUCAAGGCCCAGUC,0.266
CAAAGCGGAAAAUGUUUUAUUUUGUAAUUAUUGUGAUCUCCUGUGGCCCCAGCCUGGCCCAGCCCCCAGGGAGGGGCCCGCUUGCCUCAGCUCCUGCUGCCACCAACCCA,0.394
GCCUAAUUCAGUUCCAGCUCUCACUCUACUCACCCAUGCCUCUAGCUGCACAAUGUUAUGGCACUACGGGAGAGGCGAGGAAGGAGACGUGAGAUCAACAAAUGAGACCC,0.697
UGAGGCAGGAGAAUUGCUUAAACCUGGGAGGUGGAGGCUGCAGUGAGCCAAGAUCGUGCCACUGCACUCCAGCCUGAGUGACAGAGCAAGACUCCGUCAAAAAAAAAAAA,0.703
UUGAGGAAAACUUGACUGUCAGGCUAGCUGACUCUAGCUUUAUUUCUGCUGCCAGGAAGCACAGUUUAAAAAUGCUAGUCUGGAUACAGAGAUGUUUUUGUUGCAUUGUG,1.38
CUUUCUGUAUAUGGAUGGCACAGAGGAAUCAAGGACAACUUAGCUCUCUGCAUACUUGGAACAACCAACUAUUUGUACAUUGAACGGAUGCUCUGAAACCCAAGGGACUG,8.21

# Study 3 — target: CCND3, cyclin fold, Cln2 fusion (human); technique: yeast growth competition, sequencing; sample: yeast; notes: weak parent motif; reference: not given; direction: higher = stronger binding
# Starting sequence: E2F1 docking peptide (human); PPVKRRLDFETDH; partner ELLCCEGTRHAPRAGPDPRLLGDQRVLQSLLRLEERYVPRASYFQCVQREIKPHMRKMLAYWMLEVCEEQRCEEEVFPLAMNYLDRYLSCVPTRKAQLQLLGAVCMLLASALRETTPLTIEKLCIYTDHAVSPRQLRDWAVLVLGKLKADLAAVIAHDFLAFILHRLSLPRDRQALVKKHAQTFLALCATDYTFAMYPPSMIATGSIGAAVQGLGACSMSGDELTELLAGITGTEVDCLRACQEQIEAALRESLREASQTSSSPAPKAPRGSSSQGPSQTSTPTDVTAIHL
Change,normalised enrichment score
PPVKRRLDFETFH [D12F],0.295
PPVKRRLGFETDH [D8G],-0.15
PPVKRRLDKETDH [F9K],-0.141
PPVKNRLDFETDH [R5N],0.489
PPVKRRLDFETSH [D12S],0.159
PPVKRRLDFETMH [D12M],0.253
PPVKRPLDFETDH [R6P],-0.0424
PPVKPRLDFETDH [R5P],-0.34
PPVKRRLDFNTDH [E10N],0.514
PPVKRRLWFETDH [D8W],0.294
PPEKRRLDFETDH [V3E],-0.206
PPRKRRLDFETDH [V3R],0.115
PMVKRRLDFETDH [P2M],0.202

# Study 4 — technique: universal PBM; molecule type: double-stranded DNA, one strand shown; sample: in vitro; concentration: 600 nM; direction: higher = stronger binding
# Target: Sal-like protein 4, full length isoform A (SALL4, Homo sapiens, UniProt Q9UJQ4, residues 1-1053)
# UniProt Q9UJQ4, sequence (whole entry, looked up): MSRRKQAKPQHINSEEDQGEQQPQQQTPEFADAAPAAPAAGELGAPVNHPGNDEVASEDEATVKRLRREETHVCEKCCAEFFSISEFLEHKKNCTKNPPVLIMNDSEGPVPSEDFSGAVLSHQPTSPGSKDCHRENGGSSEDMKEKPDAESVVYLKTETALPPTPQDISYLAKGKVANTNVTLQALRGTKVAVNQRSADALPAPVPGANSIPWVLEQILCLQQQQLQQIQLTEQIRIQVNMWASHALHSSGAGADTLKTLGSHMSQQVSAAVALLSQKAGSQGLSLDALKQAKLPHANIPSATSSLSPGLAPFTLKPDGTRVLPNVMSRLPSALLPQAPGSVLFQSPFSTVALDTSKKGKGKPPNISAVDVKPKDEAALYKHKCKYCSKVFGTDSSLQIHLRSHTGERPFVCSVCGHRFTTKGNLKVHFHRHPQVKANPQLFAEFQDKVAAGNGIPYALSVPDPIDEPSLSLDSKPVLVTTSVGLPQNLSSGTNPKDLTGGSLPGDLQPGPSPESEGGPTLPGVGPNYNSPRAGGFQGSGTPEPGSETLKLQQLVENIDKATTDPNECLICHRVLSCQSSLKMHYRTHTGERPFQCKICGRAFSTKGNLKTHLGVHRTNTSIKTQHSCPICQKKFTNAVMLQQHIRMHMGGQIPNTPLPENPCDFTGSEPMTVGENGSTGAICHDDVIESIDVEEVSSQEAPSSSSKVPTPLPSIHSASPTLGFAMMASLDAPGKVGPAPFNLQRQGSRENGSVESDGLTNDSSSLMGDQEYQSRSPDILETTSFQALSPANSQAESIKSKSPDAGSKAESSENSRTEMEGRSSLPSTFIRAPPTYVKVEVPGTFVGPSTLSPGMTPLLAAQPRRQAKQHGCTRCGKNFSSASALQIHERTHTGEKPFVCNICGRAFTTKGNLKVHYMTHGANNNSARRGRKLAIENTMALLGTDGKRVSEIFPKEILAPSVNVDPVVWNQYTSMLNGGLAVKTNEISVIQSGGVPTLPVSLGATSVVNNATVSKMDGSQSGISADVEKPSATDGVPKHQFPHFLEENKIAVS
# Notes: 8-mer, flanks averaged, mean of replicates
Oligonucleotide,E-score
ACTATCTG,-0.0632
CCCCAGGC,-0.333
CCGGTACA,-0.101
CAAGAGAA,0.127
GAACTCAC,0.00948
TAACCGGA,-0.0675
ATTCCAGG,-0.0776
CGAGATAG,-0.235
CCGGTTCA,-0.202
GCGAGCTA,-0.0911
GCCCTCGA,-0.16
ATCAGGAC,-0.0525
GACTGTTA,0.153
ATCTCACC,0.0657
CATAGAGA,0.148
ATTAACTA,0.276
GTTGTCTA,0.178
AAAGGTGC,-0.0146
ATCCGGCA,-0.0903

# Study 5 — technique: DHFR PCA, deep sequencing; sample: yeast; together with: (+)-ABA 2500 µM; reference: wild-type fitted maximum; direction: higher = stronger binding
# Target: ABI1, truncated, D143A, DHFR fusion (Arabidopsis thaliana)
# Notes: methotrexate growth selection, single substitutions
# Starting sequence: PYL1, truncated, DHFR fusion (Arabidopsis thaliana); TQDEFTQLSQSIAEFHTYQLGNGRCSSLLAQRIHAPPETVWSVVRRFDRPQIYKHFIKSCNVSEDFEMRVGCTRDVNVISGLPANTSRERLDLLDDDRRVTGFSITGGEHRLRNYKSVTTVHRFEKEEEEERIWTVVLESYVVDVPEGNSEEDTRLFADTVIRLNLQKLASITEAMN
Change,relative binding score [%]
D75K,102
H16M,52.8
T119H,57.4
H110Q,77.6
P37E,95.9
K54E,-14.5
V43Y,103
R69K,93.8
V70E,96.9
N165Q,65.4
G148E,94.2
A175P,95.2
G21C,94.5
Q10G,103
K116R,98.3
A13F,98.6

# Study 6 — Molecule: B1 (Ltn1 RING domain); technique: yeast two-hybrid; sample: yeast; notes: mostly zero background; reference: not given; direction: higher = stronger interaction
# B1: Ltn1 RING domain (UniProt Q6A009); chain VDKRFEGVEDCMICFSVIHGFNYSLPKKACRTCKKKFHSACLYKWFTSSNKSTCPLCRETFF
target,lacZ reporter activity
UBE2G1 UBC core domain (UniProt P62253),0
UBE2Z UBC core domain (UniProt Q9H832),0
UBE2R2 UBC core domain (UniProt Q712K3),0
BIRC6 UBC core domain (UniProt Q9NR09),0
UBE2J1 UBC core domain (UniProt Q9Y385),0
UBE2O UBC core domain (UniProt Q9C0C9),0
UBE2C UBC core domain (UniProt O00762),0

# Study 7 — target: CEBPE, bZIP domain (human); technique: DHFR protein complementation; sample: yeast; reference: wild-type JUN-FOS pair; direction: higher = stronger binding
# Notes: single substitutions, most at no-binding floor
# Starting sequence: JUN, bZIP domain (human); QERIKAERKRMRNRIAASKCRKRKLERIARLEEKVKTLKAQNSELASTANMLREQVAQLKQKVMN; partner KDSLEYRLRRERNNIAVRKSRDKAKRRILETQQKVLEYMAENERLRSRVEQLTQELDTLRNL
Change,binding fitness
Q55K,-1.1 natural log
R30N,-1.14 natural log
V56G,-1.47 natural log
T37G,-1.27 natural log
A49F,-1.35 natural log
E32N,-1.27 natural log
T37P,-1.5 natural log
A49H,-1.37 natural log
S43G,-1.21 natural log

# Excerpt of the above (study 5):
Change,relative binding score [%]
T119H,57.4
N165Q,65.4
Q10G,103
H16M,52.8
G21C,94.5
R69K,93.8
